Measurements of several laboratories.
Lines come from different studies, so protocols differ. “And” joins repeats or separate records; there may be more than shown. Numbers after ± are the reported error.
AMC4: Metacaspase-4 (AMC4, Arabidopsis thaliana, UniProt O64517)
Chain of UniProt O64517 (whole entry, looked up): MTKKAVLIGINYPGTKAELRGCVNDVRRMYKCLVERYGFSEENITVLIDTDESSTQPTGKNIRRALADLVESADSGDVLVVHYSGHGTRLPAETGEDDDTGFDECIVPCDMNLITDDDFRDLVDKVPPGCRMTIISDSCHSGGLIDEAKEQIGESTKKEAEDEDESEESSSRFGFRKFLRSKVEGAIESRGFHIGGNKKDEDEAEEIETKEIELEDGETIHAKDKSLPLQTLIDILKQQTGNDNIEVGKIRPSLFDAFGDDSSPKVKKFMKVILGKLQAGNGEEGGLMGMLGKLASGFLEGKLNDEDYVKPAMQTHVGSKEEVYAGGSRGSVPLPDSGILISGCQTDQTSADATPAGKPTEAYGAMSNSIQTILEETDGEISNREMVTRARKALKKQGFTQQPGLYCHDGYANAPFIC
Slc6a4: Sodium-dependent serotonin transporter (Slc6a4, Rattus norvegicus, UniProt P31652)
Chain of UniProt P31652 (whole entry, looked up): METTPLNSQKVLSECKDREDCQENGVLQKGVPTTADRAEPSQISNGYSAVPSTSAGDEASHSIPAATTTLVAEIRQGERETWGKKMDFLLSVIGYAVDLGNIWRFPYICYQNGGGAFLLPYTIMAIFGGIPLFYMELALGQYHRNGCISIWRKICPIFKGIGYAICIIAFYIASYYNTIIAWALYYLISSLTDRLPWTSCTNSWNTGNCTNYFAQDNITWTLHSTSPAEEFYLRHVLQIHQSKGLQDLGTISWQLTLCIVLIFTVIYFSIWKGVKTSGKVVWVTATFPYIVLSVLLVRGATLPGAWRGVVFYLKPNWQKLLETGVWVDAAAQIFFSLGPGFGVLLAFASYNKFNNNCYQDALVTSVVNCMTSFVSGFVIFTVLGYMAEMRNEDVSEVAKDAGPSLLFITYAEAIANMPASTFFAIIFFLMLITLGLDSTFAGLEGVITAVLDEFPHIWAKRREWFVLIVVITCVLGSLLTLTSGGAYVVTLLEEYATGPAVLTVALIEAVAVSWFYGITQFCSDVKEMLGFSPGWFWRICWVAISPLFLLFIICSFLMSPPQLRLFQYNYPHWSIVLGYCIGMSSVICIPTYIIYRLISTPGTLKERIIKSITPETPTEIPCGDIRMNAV
4'-phosphopantetheinyl transferase PptT: 4'-phosphopantetheinyl transferase PptT (Mycobacterium tuberculosis, UniProt O33336)
Chain of UniProt O33336 (whole entry, looked up): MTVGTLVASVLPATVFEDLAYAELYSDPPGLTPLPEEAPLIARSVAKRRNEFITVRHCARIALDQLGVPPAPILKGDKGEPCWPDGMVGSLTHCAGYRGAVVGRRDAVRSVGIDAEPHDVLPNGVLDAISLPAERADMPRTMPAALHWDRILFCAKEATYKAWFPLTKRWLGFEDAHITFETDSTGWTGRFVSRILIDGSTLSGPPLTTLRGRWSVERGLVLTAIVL
Chain of UniProt Q9HAC7 (whole entry, looked up): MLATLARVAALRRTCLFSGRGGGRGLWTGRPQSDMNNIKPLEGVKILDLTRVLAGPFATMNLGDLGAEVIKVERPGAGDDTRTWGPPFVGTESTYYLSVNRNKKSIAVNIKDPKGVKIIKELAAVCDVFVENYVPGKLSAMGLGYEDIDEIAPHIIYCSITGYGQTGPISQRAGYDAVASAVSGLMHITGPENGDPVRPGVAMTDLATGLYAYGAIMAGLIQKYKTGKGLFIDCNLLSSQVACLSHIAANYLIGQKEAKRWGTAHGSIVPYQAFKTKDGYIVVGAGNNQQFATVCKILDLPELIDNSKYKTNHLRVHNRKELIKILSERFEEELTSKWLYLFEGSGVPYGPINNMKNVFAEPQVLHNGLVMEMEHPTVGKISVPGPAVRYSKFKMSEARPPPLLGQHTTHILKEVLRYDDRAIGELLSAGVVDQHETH
Chain of UniProt P00346 (whole entry, looked up): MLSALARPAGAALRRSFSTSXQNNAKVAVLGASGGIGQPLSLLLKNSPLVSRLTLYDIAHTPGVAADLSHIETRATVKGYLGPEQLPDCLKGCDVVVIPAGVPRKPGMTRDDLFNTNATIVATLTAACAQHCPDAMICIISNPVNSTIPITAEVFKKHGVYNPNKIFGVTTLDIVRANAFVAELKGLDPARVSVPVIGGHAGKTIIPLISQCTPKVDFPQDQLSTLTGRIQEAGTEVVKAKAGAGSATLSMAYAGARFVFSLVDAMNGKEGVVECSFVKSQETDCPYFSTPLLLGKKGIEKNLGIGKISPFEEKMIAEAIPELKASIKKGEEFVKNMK

O=C1NC(=S)N(c2ccccc2)C(=O)C1=Cc1ccc(-c2ccc(C(=O)O)c(Cl)c2)o1  IC50 (AMC4; enzyme activity, inhibitor; pH 7.5, 50 mM CaCl2, added: VRPR-AMC 50 µM): > 200 µM
CCC(C(=O)c1ccc2c(c1)OCO2)N(C)C (centres unmarked)  IC50 (Slc6a4; rat): > 10 µM
O=C1NC(=S)NC(=O)C1=CC=Cc1ccco1  IC50 (AMC4; enzyme activity, inhibitor; pH 7.5, 50 mM CaCl2, added: VRPR-AMC 50 µM): > 200 µM
C=C(C)[C@@H]1CCC(C)=C[C@H]1c1c(O)cc(CCCCC)c(C(=O)O)c1O  IC50 (Malate dehydrogenase, mitochondrial (MDH2, Sus scrofa, UniProt P00346)): 97 µM
CCc1cccc(CC)c1NC(=O)NC(=N)N  IC50 (4'-phosphopantetheinyl transferase PptT; inhibitor): ≥ 23 µM and > 23 µM
CCCCC(=O)N(Cc1ccc(-c2ccccc2-c2nnn[nH]2)cc1)[C@H](C(=O)O)C(C)C  IC50 (Succinyl-CoA:glutarate CoA-transferase (SUGCT, Homo sapiens, UniProt Q9HAC7); enzyme activity, inhibitor, fluorometric coupled; pH 7.44, KCl-HCl buffer): 12.1 µM
CCNC(=NC#N)NC(=O)Nc1c(CC)cccc1CC  IC50 (4'-phosphopantetheinyl transferase PptT; inhibitor): > 100 µM
Cc1nc2ccc(CN(C)c3ccc(C(=O)N[C@@H](CCC(=O)O)C(=O)O)s3)cc2c(=O)[nH]1  IC50 (4'-phosphopantetheinyl transferase PptT; enzyme activity, inhibitor, fluorescence polarization; enzyme 100 nM): 0.054 µM
CCCC(NC)C(=O)c1ccc2c(c1)OCO2 (racemic)  IC50 (Slc6a4; serotonin uptake, inhibitor; rat brain synaptosomes; added: [3H]5-HT 5 nM): 1.24 ± 0.14 µM
O=C1NC(=S)N(c2cccc(Cl)c2)C(=O)C1=Cc1ccc2c(c1)OCO2  IC50 (AMC4; enzyme activity, inhibitor; pH 7.5, 50 mM CaCl2, added: VRPR-AMC 50 µM): 41 µM
CCc1cccc(CC)c1NC(=O)NC(=N)NC(=O)Nc1c(CC)cccc1CC  IC50 (4'-phosphopantetheinyl transferase PptT; inhibitor): > 100 µM

Some of these lines once more:
CCc1cccc(CC)c1NC(=O)NC(=N)N  IC50 (4'-phosphopantetheinyl transferase PptT; inhibitor): ≥ 23 µM and > 23 µM
